Assay results of several laboratories.
Compare with care: the assays were run in different laboratories. ± marks the error that the study gave.

| SMILES | cell line | assay | conditions | IC50 |
| --- | --- | --- | --- | --- |
| C=CC(=O)N1CCCC(n2c(=O)c3ncccc3n(Cc3ccc(Oc4ccccc4)cc3)c2=O)C1 (stereo not drawn) | RPMI-8226 bortezomib-resistant | cell proliferation, MTT | 72 h | 0.5 µM |
| C=C1C(=O)OC2CC3=C[C@@H](C/C(C)=C/C(OC(=O)Cc4cccc5ccccc45)[C@H]12)OC3=O (stereo partly drawn) | M10 normal mammary cells | cell viability, MTT | 24 h | no inhibition |
| C=C[C@H](OC(C)=O)c1ccc(OC(C)=O)cc1 | HMEC | MTT | 24 h | > 50 µM |
| Oc1cccc2[nH]c(/C(=N/OCc3ccccc3)c3cc4cccc(O)c4o3)nc12 | NCI-H358 | cell growth or viability, ATP luminescence | 72 h | 31.4 µM |
| Cn1cc(-c2cc(N3CCCCS3(=O)=O)ccc2N[C@H]2CC[C@H](C)CC2)c2cc[nH]c2c1=O (stereo in doubt) | Light2 cells expressing SMO^W535L | GLI-luciferase reporter, inhibitor, item: SMO^W535L | – | 0.00063 µM |
| C=CCc1ccc(O)c(-c2cc(CC=C)ccc2OCCCCCCCCCC[P+](c2ccccc2)(c2ccccc2)c2ccccc2)c1 | UACC-62-R (PLX4720-resistant) | cell proliferation, inhibitor | – | 0.29 µM |
| C=C(C)[C@@H]1CC[C@]2(C(=O)O)CC[C@]3(C)[C@H](CC[C@@H]4[C@@]5(C)CC[C@H](O[C@@H]6O[C@@H](C)[C@H](O)[C@@H](O)[C@H]6OC)C(C)(C)[C@@H]5CC[C@]43C)[C@@H]12 | DLD-1 | cell growth or viability, fluorescence | 48 h | 5.4 µM |
| COc1ccc(C=CC(=O)OC2CC3(C)C(CC(O)C4C(C5(C)CCCC(C)(C)O5)CCC43C)C3(C)CCC(OC(=O)C=Cc4ccc(OC)cc4)C(C)(C)C23)cc1 (stereo not drawn) | Hep3B | HRE reporter gene, inhibitor | 24 h, hypoxia | > 30 µM |
| FC(F)(F)c1n[nH]cc1-c1nc2ccc3[nH]ncc3c2c2c1CCCCC2 | MOLM-14 | cell growth or viability, resazurin | 72 h | 0.0166 µM |
| O=[N+]([O-])c1ccc(NC2=N[N+](=Cc3cccs3)[Pd-]([Cl])([Cl])[S]2)cc1 | MDCK | cell proliferation | – | > 100 µM |
| Cc1ccn2c(Nc3ccc(C(=O)NO)cc3)cnc2c1 | CAL-27 | cell growth or viability, MTT | – | 3.92 µM |
| COc1cc([C@@H]2c3cc4c(cc3[C@H](OC(=O)CCCc3ccc(NS(=O)(=O)c5ccccc5Br)cc3)[C@H]3COC(=O)[C@H]23)OCO4)cc(OC)c1OC | NCI-H446 | cell growth or viability, CCK-8 | 24 h | 8.11 µM |
| CC(=O)NCCCN(C)CCCNc1cccc2c1C(=O)c1cccc(NCCCN(C)CCCNC(C)=O)c1C2=O | SAS | cell growth or viability, CCK-8 | 48 h | 0.5 µM |
| C[C@]12CC/C(=N/O)C=C1CCC1C2CC[C@]2(C)/C(=C/c3ccccn3)CCC12 (stereo partly drawn) | CEM | cytotoxicity, alamarBlue | 72 h | > 50 µM |
| COc1ccc(/C=C/C(=O)c2ccccc2)cc1 | human cells | NF-κB reporter gene, inhibitor | added: TNF-alpha | 28.8 µM |
| CCCC[C@@H]1NC(=O)CN(S(C)(=O)=O)CCNC(=O)[C@H](CCCCN)NC(=O)[C@H](CC(C)C)NC(=O)[C@H](CCCCN)NC(=O)[C@H](CCC(N)=O)NC(=O)[C@H](CCCCN)NC(=O)COC[C@H]2CCCN2C(=O)[C@H](Cc2c[nH]c3ccccc23)NC(=O)[C@H](C)NC(=O)[C@H](C(C)C)NC(=O)[C@H](C(C)C)NC1=O | NCI-H929 | viability, TO-PRO-3 staining, flow cytometry | – | 24.8 µM |
| COc1cc(O)c(C(=O)/C=C/c2ccc(O)cc2)c(OC)c1 | human cells | NF-κB reporter gene, inhibitor | added: TNF-alpha | 7.94 µM |
| CC1(C)CCCC(C)(C2CCC3(C)C2C(O)CC2C4(C)CCC(OC(=O)c5cn(-c6ccccc6)nn5)C(C)(C)C4C(OC(=O)c4cn(-c5ccccc5)nn4)CC23C)O1 (stereo not drawn) | Hep3B | HRE reporter gene, inhibitor | 24 h, hypoxia | > 30 µM |

| SMILES | cell line | assay | conditions | IC50 |
| --- | --- | --- | --- | --- |
| CC(C)=CCC1=C(O)c2c(occ(-c3ccc(O)cc3)c2=O)C(CC=C(C)C)(CC=C(C)C)C1=O | Huh-7 | cell growth or viability, MTT | 24 h | 14.8 µM |
| CC1=C2[O][Ru-]([Cl])[O+]=C2C=CN1CCCCCCCCCCCCN1C=CC2=[O+][Ru-]([Cl])[O]C2=C1C.Cc1ccc(C(C)C)cc1.Cc1ccc(C(C)C)cc1 | RT-4 | cell growth or viability, crystal violet | 96 h | 6 µM |
| Brc1ccc(C(c2c[nH]c3ccccc23)c2c[nH]c3ccccc23)cc1 | B16 | cell growth or viability, MTT | 24 h | 9.9 µM |
| Clc1ccc(C=[N+]2N=C(Nc3ccccc3)[S][Pt-]2([Cl])[Cl])s1 | MDCK | cell proliferation | – | 12.6 µM |
| Cc1c(OCc2ccccc2)c(=O)ccn1CCCOC(=O)c1ccccc1[N+](=O)[O-] | fibroblast cells | cell viability, MTT | 48 h | 190 µg/mL |
| CC(C)C(NC(=O)OC(C)(C)C)C(=O)OC1CC2(C)C(CC(O)C3C(C4(C)CCCC(C)(C)O4)CCC32C)C2(C)CCC(OC(=O)C(NC(=O)OC(C)(C)C)C(C)C)C(C)(C)C12 (stereo not drawn) | Hep3B | HRE reporter gene, inhibitor | 24 h, hypoxia | > 30 µM |
| O=[N+]([O-])c1ccc(/N=N/c2ccc(O)c(O)c2)cc1 | HPNE | cell growth or viability, resazurin | 72 h | 2.65 µM |
| CN(C)CCO/N=C1/C=C2CCC3C(CC[C@]4(C)/C(=C/c5ccccn5)CCC34)[C@@]2(C)CC1 (stereo partly drawn) | CEM | cytotoxicity, alamarBlue | 72 h | 22.7 µM |
| O=C(O)Cc1ccccc1Nc1c(Cl)cccc1Cl.O=C(O)Cc1ccccc1Nc1c(Cl)cccc1Cl.c1cnc2c(c1)ccc1cccnc12.c1cnc2c(c1)ccc1cccnc12 | CAL-27 | cytotoxicity, MTT | – | 3.87 ± 0.04 µM |
| CCCC[C@@H]1NC(=O)CN(S(C)(=O)=O)CCNC(=O)[C@H](CCCCN)NC(=O)[C@H](CC(C)C)NC(=O)[C@H](CCCCN)NC(=O)[C@H](CC(C)C)NC(=O)[C@H](CCC(N)=O)NC(=O)COC[C@H]2CCCN2C(=O)[C@H](Cc2c[nH]c3ccccc23)NC(=O)[C@H](C)NC(=O)[C@H](C(C)C)NC(=O)[C@H](C(C)C)NC1=O | NCI-H929 | viability, TO-PRO-3 staining, flow cytometry | – | 38.4 µM |
| COc1cc(CN2CCN(c3ccccc3[N+](=O)[O-])CC2)c2cc3[n+](cc2c1O)CCc1cc2c(cc1-3)OCO2 | Ca-Ski | cell growth or viability, SRB | 48 h | 4.67 µg/mL |
| CC(C)OC(=O)[C@]12CS[C@H](c3ccccc3)N1C(=O)/C(=C(\O)CCc1ccccc1)C2=O | MDCK | cell growth or viability, resazurin | – | 31.3 µg/mL |
| COc1cc(CC(=O)N2CC(=O)N[C@@H](Cc3ccccc3)CN(C(=O)Cc3ccc4ccccc4c3)CC(=O)N[C@@H](CCCCN)CN(C(=O)Cc3ccc4c(c3)OCO4)CC(=O)N[C@@H](CCCCN)CN(CC(N)=O)C(=O)CCSCc3ccc(cc3)C(=O)N[C@@H](CC(C)C)C2)cc(OC)c1 | SK-BR-3 | western blot, item: phospho-ERK | 4 h | 10.6 µM |
| CCc1n(CC(=O)O[C@@H]2C[C@H](C)CC[C@H]2C(C)C)c2ccccc2[n+]1C | primary mouse glioblastoma cultures | cell viability | – | ~0.15 µM |
| CC(C)(C)OC(=O)NC(Cc1c[nH]c2ccccc12)C(=O)OC1CC2(C)C(CC(O)C3C(C4(C)CCCC(C)(C)O4)CCC32C)C2(C)CCC(OC(=O)C(Cc3c[nH]c4ccccc34)NC(=O)OC(C)(C)C)C(C)(C)C12 (stereo not drawn) | Hep3B | HRE reporter gene, inhibitor | 24 h, hypoxia | 11.4 ± 0.16 µM |
| COc1cccc2cc(C(=O)NNc3nc(-c4ccccc4)cs3)c(=O)oc12 | EA.hy 926 | cell growth or viability, SRB | 72 h | 89 µM |
| O=c1[nH]c2ccccc2nc1/C=C/c1ccccc1Br | HeLa 229 | cell growth or viability, MTT | 72 h | > 50 µM |
| C[N+]1(C)CC[NH2+][Pt-2]1([OH])([Cl])([Cl])[O]C(=O)CCC(=O)O | P31 | cell viability, EZ4U | 96 h | 164 ± 2 µM |

A few entries again:
| SMILES | cell line | assay | conditions | IC50 |
| --- | --- | --- | --- | --- |
| COc1ccc(/C=C/C(=O)c2ccccc2)cc1 | human cells | NF-κB reporter gene, inhibitor | added: TNF-alpha | 28.8 µM |
| CCCC[C@@H]1NC(=O)CN(S(C)(=O)=O)CCNC(=O)[C@H](CCCCN)NC(=O)[C@H](CC(C)C)NC(=O)[C@H](CCCCN)NC(=O)[C@H](CCC(N)=O)NC(=O)[C@H](CCCCN)NC(=O)COC[C@H]2CCCN2C(=O)[C@H](Cc2c[nH]c3ccccc23)NC(=O)[C@H](C)NC(=O)[C@H](C(C)C)NC(=O)[C@H](C(C)C)NC1=O | NCI-H929 | viability, TO-PRO-3 staining, flow cytometry | – | 24.8 µM |
| COc1cc(O)c(C(=O)/C=C/c2ccc(O)cc2)c(OC)c1 | human cells | NF-κB reporter gene, inhibitor | added: TNF-alpha | 7.94 µM |
| CC1(C)CCCC(C)(C2CCC3(C)C2C(O)CC2C4(C)CCC(OC(=O)c5cn(-c6ccccc6)nn5)C(C)(C)C4C(OC(=O)c4cn(-c5ccccc5)nn4)CC23C)O1 (stereo not drawn) | Hep3B | HRE reporter gene, inhibitor | 24 h, hypoxia | > 30 µM |
